Measured values from different studies.
Every numbered part comes from another study and shows a few of its results, in no order. Changes are numbered by the printed parent chain.

Block 1
Target: RNA binding protein fox-1 homolog 2, RRM domain, GST-SBP tag (RBFOX2, Homo sapiens, UniProt O43251-10, residues 100-194)
Technique: RNA Bind-n-Seq
Molecule type: RNA
Sample: in vitro
Concentration: 365 nM
Notes: natural RNA segment, single round, ends assumed
Reference: no-protein control
Reading: higher = stronger binding
Shared flanks, not repeated: GGGAGUUCUACAGUCCGACGAUC … UGGAAUUCUCGGGUGCCAA
Residues (chain): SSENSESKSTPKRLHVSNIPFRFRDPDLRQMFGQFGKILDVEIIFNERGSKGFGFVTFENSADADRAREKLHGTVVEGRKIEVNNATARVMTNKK
Strand | RBNS enrichment (R)
CCGCUUGUCCCUCUUAGGCAUUUCAGGCUUCCUUUGGGAUUUCAGGUGUCCCAUGAUCUUGAUGUGCUGCUAGGCUGGAGCACACACUGGCCAUUACUGAACACAGCCAU | 0.877
CUGACUACGUGUAAUUGGGCAGAUCAGCUUUGCAGUAGAUUAUGCUGCAUCCUCGUGGCAAAAUUCUGUAUUCUUAGUGAUUGUUACAAACCCCUUUAUUGCUGUCUGAG | 0.25
UGCUGUCCUUCUUUGCAUUUCACAAUAUCAAAGAAACCACCACCCUUCUUCCUAACAGCAUUUUAUGCCUUUUAUUCCACAUUAAAUGGGAAUUGUGCCUACUUAGGAGU | 0.425
UAACUAAAUCAUGACCAUCUGAUGCAAGAUGCAGUCAUAUCCAUGGUACUGAAAAUAACAUGAUGCUUGCUUGGAGUAUGAUGCUAUGUCACCCAAGUCACAGGAUGAUU | 0.426
CCUUUUCUGUGCGCCUGUUCUGAAGCCAACUUAAACCUGUCCACAUCUUCACUACCAUUCGCCCUUUCUGCUGAAGGAAUGGUGACGUGUUCCCAGGAGAACUGGGAGGC | 0.269
UAGACAUUGUUGGAGAAGUGGGCUGCCUUCCCCAAGUGGGGCACUGCUUAAGCACUUAUUCAGUGGAGAACACAGGUGAAAAGCAACUCAGGAUGAGGGUGGUGGAGAGG | 0.679
UGAAUCAUAAAAUGGGGACAUAUCAUCAAAUCCAAAGUGGUAACAGUGCUAAAUAAGCAUGUAUGAAAUUGAAUGGUUGUGAUGGCUGGUGGGCGGGGGCAAAGAGCCUA | 1.48
CCAGUGUUCUCCUGUAAAUCUCACUGUAAAAAUCUCAAUGCAAAAACACUGAGACAGGAGUGAGACCAGCUGCGGGUGGGGAGUUUGUGCUCCGCAGGUUACCUCAUGGC | 0.296

Block 2
Target: CCNB2, cyclin fold, Cln2 fusion (human)
Technique: yeast growth competition, sequencing
Sample: yeast
Notes: strong parent motif
Reference: not given
Reading: higher = stronger binding
Starting sequence: BRCA2 docking peptide (human); PSIKRNLLNEFDR
Substitution | normalised enrichment score
D12I | 2.09
L8H | 1.03
L7V | -0.0325
L8I | 3.54
D12Y | 2.25
P1G | 3.37
F11E | -0.315
N6M | 0.511
R5K | 3.36
N9I | 3.96
F11C | -0.313
L7S | -0.65
L7E | 0.0729
R13E | 4.16
S2Y | 2.46
N6I | 0.807
R5N | 0.0721
F11N | -0.248
L8R | 0.331
I3P | 1.7
L8C | 2.36
D12P | 1.14
K4C | 3.91
F11P | -0.0926
I3L | 3.27

Block 3
Target: Histone acetyltransferase KAT6A, both winged helices, GST fusion (KAT6A, Homo sapiens, UniProt Q92794, residues 1-181)
Technique: protein binding microarray
Molecule type: double-stranded DNA, one strand shown
Sample: in vitro
Concentration: not given
Notes: 8-mer, flanks averaged, mean of 2 arrays, mostly near background
Reference: not given
Reading: higher = stronger binding
Target sequence (chain): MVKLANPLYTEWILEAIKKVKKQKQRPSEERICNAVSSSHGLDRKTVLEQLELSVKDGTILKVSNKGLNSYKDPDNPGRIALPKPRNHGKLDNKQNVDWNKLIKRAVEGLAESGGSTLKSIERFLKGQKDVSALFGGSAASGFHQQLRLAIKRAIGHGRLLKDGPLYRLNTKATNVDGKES
Strand | E-score
AAGTCTGC | -0.0605
GAACTGCC | -0.0896
ACGCATAA | 0.109
GCGGTGTA | 0.175
CATCTTGA | -0.186
CCCTAGCG | -0.00465
GGTGGCAA | -0.215
AACCACGA | -0.0447
GCCGAGCC | 0.137
GCACTTCC | 0.00673
CGCGTCTA | 0.283
GTCTAATA | 0.0616
GAGCTTTA | 0.0139
GTTACTGA | 0.109
ACGGTCAA | 0.172
CAATACGC | 0.069
GCGCAAAC | 0.197
CTTTTGTC | -0.0094
AACGTTGT | 0.00983
ACACTCAT | -0.076
CAACACCG | 0.165
TCTTTCAA | -0.198
GAGATCGC | 0.0199
CCACTCGA | -0.184
ACGCCCAC | -0.0869

Block 4
Target: Interferon regulatory factor 5, full length, phosphomimetic (IRF5, Homo sapiens, UniProt Q13568-2, residues 1-514, K96S/S451D/S453D/S456D/S462D)
Technique: protein-binding microarray
Molecule type: double-stranded DNA, one strand shown
Sample: in vitro
Concentration: 250 nM
Notes: 60-bp whole probe
Together with: salmon DNA 0.4 mg/ml
Reference: random background probes
Reading: higher = stronger binding
Shared flanks, not repeated: GCCTAGCAC … GTCTTGATTCGCTTGACGCTGCTG
Strand | log fluorescence
GACGAACCGAGACTGGAGACGTGCTAG | -0.0903 z-score
GACGGTTCCCTTTTCCTGACGTGCTAG | 0.131 z-score
GTAGGTTTCCTACTGCTTTAGTGCTAG | 0.136 z-score
GACAATTTCAGTCTCGAGACGTGCTAG | 2.82 z-score
TTAGATATCAATCTCGATTAGTGCTAG | 1.24 z-score
CCTCCCCTTGCTTTCCAATTGTGCTAG | -0.103 z-score
CTAGGTCTCCTTTTCCTTTAGTGCTAG | -0.0126 z-score
TAGACTCTGTGCTTTCCTCGTGTGCTA | 0.0353 z-score
TTAGGTCTCTGACTGGGTTAGTGCTAG | -0.513 z-score
TTAGGTATCGTTTTCGGTTAGTGCTAG | 9.47 z-score
TTAGGACTGCTTCACCTTTAGTGCTAG | -0.376 z-score
GACGGTATCCTATTCCTGACGTGCTAG | 0.0653 z-score
GACGGTATCGGACTCGGGACGTGCTAG | 0.911 z-score
TTTGGTCTCCTTTTCCTTTAGTGCTAG | 0.708 z-score
TCAGCTCTCCGGGGTCTGACTGTGCTA | -0.341 z-score
GAAGGTATCCTTTTCCTGACGTGCTAG | 0.502 z-score
TTAGGACTGCTTTACCTTTAGTGCTAG | -0.203 z-score
GACGGTTTCGACTTTCGGCACGTGCTA | 8.16 z-score
TTAGGTATCGGTTTCGGTAAGTGCTAG | 10.7 z-score

Repeated from above (block 3):
Strand | E-score
CCCTAGCG | -0.00465
GGTGGCAA | -0.215
AACCACGA | -0.0447
GCCGAGCC | 0.137
GCACTTCC | 0.00673
CGCGTCTA | 0.283
GTCTAATA | 0.0616
GAGCTTTA | 0.0139
GTTACTGA | 0.109
ACGGTCAA | 0.172
CAATACGC | 0.069
